Experimental data of several laboratories.
Every numbered part comes from another study and shows a few of its results, in no order. Changes are numbered by the printed parent chain.

Series 1 — technique: RNA Bind-n-Seq; form: RNA; matrix: in vitro; concentration: 365 nM; relative to: no-protein control; reading: higher = stronger binding; endpoint: RBNS enrichment (R)
Target: RNA binding protein fox-1 homolog 2, RRM domain, GST-SBP tag (RBFOX2, Homo sapiens, UniProt O43251-10, residues 100-194)
Setting: natural RNA segment, single round, ends assumed
Shared flanks, not repeated: GGGAGUUCUACAGUCCGACGAUC … UGGAAUUCUCGGGUGCCAA
Construct (chain): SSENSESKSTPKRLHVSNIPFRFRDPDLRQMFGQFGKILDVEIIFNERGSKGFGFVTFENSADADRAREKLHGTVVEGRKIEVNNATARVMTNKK
UUUUUUCCCCUAAAUGUAUUGCAUCAAGCCUCAGUGCUUAUGGAGUGCAGUGGUCUUCAUCUUCCCCAACUUGCUUCUCAGAGCUGGGAUGUAUUCCAGAGCCUGAUGUU: 0.592
GACUGUAUGGUCCGGGGGGUUCCUGCUGAGGAGAGGGGCUGAGGGUCCCAUGGAGAAGGGGCUGUAUCUGCCCUAUUACCUGCUAACCUAUACACUGAGAAGGAAGAAAG: 0.533
UUAUCAUUCUCUCUGCCUGCCCACCCCCUUUUUUGUAUAGCCCAAGAACCACUUCCAUGCCAUACUGUAACAUUCCAACAUCUUUAGCUGAUCAGAUCUCUCCAUAUCCU: 1.1
CCACAAACCAUUAUAAAACCCAACAUAUAUACUGAAAAUACUGAGAACUGCUUUGAAAAUUUGGAAUAUCUGAUAACUCCAGUGGGCCAAGACAUGGUGGAUAAAAAUGU: 0.446
GAGUGCCCUUUUCUGGCACUCUCAGACCAAAAGUGUUUAUUGUGUCAUUUGUCCUUUGUCUAGGAGAGGACAGGACUCUCUUUUUCCUCUUCCUGGUAGUUGUAAUGACC: 0.387
GGUUCCAGCUGAGUGGCUUGCAGGCGUGAGCGCAGGGCACGGUGGUCAGCGUGCAGCGGGACGGGACUGGCCCUGCCCAGCCAUGAAUCGCUUGGCCAUGCCUGGAUCUG: 0.426
CCCAACCCUUUCUGAUAUUGGCUAAGACCUCAGUAUCUCCCAGUAGCACUUCUUCUGGAUUUGAAUUCAAAUGUCAUUCUUAACAUUUCUGUUGAUGCUUCUUUGAAAAU: 0.646
AAAACAAUGUGAUUCAUUCCAAAGUAACAGAAGGCUAUUUGUAAGAAAGAUAAAGGCUUGUGAACAAAGAAAGCUAAGCUGUUGUACAUAUUGUAGUUGGCUGUGCAUGG: 29.1
UUCUUUGGGAUUGUGAAUAGAAUGUAGCAAAACCAGAUUCCAGUGUACUAGUCAUGGAUCUUUCUCUCCCUGGCAUGUGAAAGUCAGUCUUAGAGGAAGAGAUUCCACUU: 0.762
GCCACAGGACAGUCACUAGCACCUACUGGAAACCUCUUUGUGGGAACAUGAAGAAAGAGCCUUUGGGAGAUUCCUGGCUUUCCAUUAGGGCUGAAAGUACAACGGUUCUU: 0.254
GAAUGUAGUCCGUGAAGGGAGUGCCUCUCUGGGACCCCCUGUGUUGUUACAGGCUGUGCAGUGCAACAAUUCCAGCAAAAAUACCCUAUCCCCGCACUUAGUCAUUCGUG: 0.466
CCACAGUGGGGGGAAAAACAUUCAAGCGAUAUAAAGACACUUGGGCUCUUUGCAGAUGCCUAUACUUCCAACACUACCAUGUCCACAAACCACCCUGGGGGAGGGCCCUU: 0.325

Series 2 — technique: protein binding microarray; form: double-stranded DNA, one strand shown; matrix: in vitro; concentration: not given; relative to: not given; reading: higher = stronger binding; endpoint: E-score
Target: Histone acetyltransferase KAT6A, winged helix 2, GST fusion (KAT6A, Homo sapiens, UniProt Q92794, residues 85-181)
Setting: 8-mer, flanks averaged, mean of 2 arrays, mostly near background
Target sequence (chain): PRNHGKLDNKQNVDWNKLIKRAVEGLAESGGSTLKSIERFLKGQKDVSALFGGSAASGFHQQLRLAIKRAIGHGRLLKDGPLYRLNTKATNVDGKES
GGAAGAGA: -0.0189
AGTCAATA: -0.07
AGGTGCGG: 0.123
CCCTGCAC: -0.053
ATACAAGA: -0.027
AGCCCTAA: -0.103
ATGGCAGG: 0.147
CAATCGGA: 0.116
GAACCGAA: 0.134
CTGTAGTC: -0.0872
ATAAACAG: 0.0457
CGTGCAGA: -0.144
ATTCCTTG: 0.0309
GGTACACA: -0.00583
GCCCTAAC: 0.00967
GATTGAAC: 0.0245
CTGCCCCC: -0.00175
CTAGTCAG: -0.111
CGCGTACA: -0.105
TAAAGTCA: -0.0804
AACAAACG: -0.127
GGCTTCTA: -0.0732
GAGCTAGC: -0.0687
CGCTTCGA: 0.0167
CCTTGCTC: 0.0562

Series 3 — technique: RNA Bind-n-Seq; form: RNA; matrix: in vitro; concentration: not given; setting: RNA with constant flanks, ends assumed; relative to: input RNA pool; reading: higher = stronger binding; endpoint: bound/input enrichment
Target: RING finger protein unkempt homolog, zinc fingers 1-6, GST-SBP tag (UNK, Homo sapiens, UniProt Q9C0B0, residues 30-357)
Sequence of UniProt Q9C0B0 (30-357, looked up): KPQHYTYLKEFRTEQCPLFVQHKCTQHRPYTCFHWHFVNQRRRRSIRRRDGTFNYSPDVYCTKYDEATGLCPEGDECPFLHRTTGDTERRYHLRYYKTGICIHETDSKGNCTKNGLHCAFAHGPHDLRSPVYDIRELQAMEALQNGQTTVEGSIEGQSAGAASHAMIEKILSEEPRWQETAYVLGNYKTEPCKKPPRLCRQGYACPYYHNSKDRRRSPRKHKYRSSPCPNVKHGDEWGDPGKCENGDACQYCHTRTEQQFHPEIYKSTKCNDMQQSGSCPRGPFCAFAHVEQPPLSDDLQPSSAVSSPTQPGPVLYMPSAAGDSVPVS
Shared flanks, not repeated: GGGAGUUCUACAGUCCGACGAUC … CAACAGAGGAUUGAGCAUCA
UUAUGAUUAUUUCAGAGAUCGCGGAUUCAGGUGUGGCUCUAUGAGCAAGUGAAUAUGCGGACCGAAGGCUGUAUCAUUGGUUUUGAUGAGUAUAUGAACCUUGUAUUAGAUGAUGCAGAA: 0.569 ratio
AAGCAGCAAACAGAAAGGGUUACAAAAGAGAUGAAUGAAUUUAUUCACAGAGAGCAAAACCGUUUAUCACUUCUAGAAGCAAGUGAAGCCGACCGUGAUGCGGUCAAUGACAAGAAAAGA: 0.321 ratio
AAUGUCCUUAAAGCAAUUGAGCAGGCUGAUCUACUGCAGGAGGAAGCUGAAACCCCACGCCGUGUUCUUGAAGAAAUUGGACUGACAUAACUCUCCUCCCUUGUUGAUGACUUCUUGUGG: 0.254 ratio
GACAUUCUAAUUGGUACAGACUGAAACCUUUAUAGGAGUUAUGCAGUUCAGAAGUGGACUUCCGGUAAGUCAUUUAUUUUAAGCUGUUGAUAUAGAGAUUUAUUUUCUGUAAAUUUUGAC: 0.706 ratio
CCUCGUCCGGUGAUGACAUCAGAGGAUAGUGGCUUGUUCAGCCCUAUUCGAACCUCAGCUUUCCGUCCUCCUGGAAGCUGUACUCCUGCUGAAUGGUUUUGCCAAACAGAUACUAGUGAA: 0.304 ratio
CCAUCCCUCAGUGACAGCAUGCCGUCUGUAGCAGAUUCCCACUCCAGUCAUUUUUCUGAAUUCCGCUGCUCAGACUUAGAAAGCAUGAGAACGUCCUGUAGUCACGGCUCCAGUGAUUGC: 0.274 ratio
GGUGUAGAAUUGGGUUCAGUUUGGCAAAGACUUGGUGCAGAUGUGACAGCAGUUGAAUUUUCCGGUCAUGUAGGUGGAGUUGGAAUUGAUAUGGAGAUAUCUAAAAACUUUCAACGCAUC: 0.385 ratio
GCAUUUGUAGAAGGAGUGGUUAAGAAAGUAGCUCAAUACAUGGCUGAUGUAUUGGAAGACCGCAAAGACAAAGUUCAAGAGAAUCUGUUGGCUAAUGGAGUGGACUUGGUUACUUAUAUA: 0.352 ratio
GUCAGGGUCGCCAGCGCCUCAGCUCUGUGGAGGAGCAGCAGUAGUCGGAGGGUGCAGGAUAUCCGAAAUGGCUACUCCCCAGUCAAUUUUCAUCUUUGCAAUCUGCAUUUUAAUGAUAAC: 0.234 ratio
AGUUCCAGCGACAGCGACUCAUCUUGUGGCUGGACUGUCAUCAAUCAUGAGGGUUCUGAUACCGAGAUCGUGAAUUCUGCCACAGCCAGUGACAACUGUGGACUGACUCUAGAAUGUUCC: 0.176 ratio
CGAAUGUUUGCUUACUUCCGACGCAAUGCAGCCACGUGGAAGAAUGCAGUGCGUCAUAAUCUCCGUCUCCACAAGUGUUUUGUGCGAGUAGAGAACGUUAAAGGGGCAGUAUGGACAGUG: 0.199 ratio

Series 4 — technique: aptamer microarray, sandwich; form: DNA with 2'F-ANA; matrix: in vitro; concentration: 200 nM; with: Cy3 exosite-II aptamer, 400 nM; reading: higher = stronger binding; endpoint: mean fluorescence intensity; strand: GGTTGGTGTGGTTGG
Target: Prothrombin, mature alpha-thrombin (F2, Homo sapiens, UniProt P00734)
Setting: whole 15-mer aptamer, many near background
2'F-ANA at 2 3 4 6 7 8 13 14 15: 267 a.u.
2'F-ANA at 2 3 5 6 8 10 12 15: 57.8 a.u.
2'F-ANA at 2 3 8 15: 895 a.u.
2'F-ANA at 4 5 7 10 11 12: 77.3 a.u.
2'F-ANA at 4 5 9 11 13 15: 58.3 a.u.
2'F-ANA at 2 3 4 6 8 10 14: 164 a.u.
2'F-ANA at 1 3 7 8 9 13 15: 292 a.u.
2'F-ANA at 1 6 8 9 10 12 13 15: 68.3 a.u.
2'F-ANA at 1 3 4 6 8 10 12 13 14 15: 84 a.u.
2'F-ANA at 1 4 7 8 9 10 11 12: 62.5 a.u.
2'F-ANA at 3 4 6 7 8 9 10: 286 a.u.
2'F-ANA at 2 3 6 7 9 10 14: 275 a.u.
2'F-ANA at 2 4 6 7: 340 a.u.
2'F-ANA at 1 3 6 9 10 11 12: 123 a.u.
2'F-ANA at 2 6 7 8 9 10: 129 a.u.
2'F-ANA at 1 2 3 7 8 9 10 13 14 15: 57.4 a.u.
2'F-ANA at 1 3 4 7 10 12: 86.8 a.u.
2'F-ANA at 1 4 7 8 10 11 15: 58.6 a.u.
2'F-ANA at 1 2 4 6 7 8 11 12 13: 188 a.u.
2'F-ANA at 2 4 5 6 9 10 11 12 14: 46.6 a.u.
2'F-ANA at 1 3 5 6 7 9 10 15: 54.3 a.u.
2'F-ANA at 4 5 11 12 13 14 15: 44.4 a.u.
2'F-ANA at 2 3 6 11 12 13 14 15: 348 a.u.
2'F-ANA at 1 2 3 5 7 8 9 10 12: 108 a.u.
2'F-ANA at 1 4 5 7 8 9 12 13 14 15: 96.6 a.u.

Series 5 — target: CCNB2, cyclin fold, Cln2 fusion (human); technique: yeast growth competition, sequencing; matrix: yeast; setting: weak parent motif; relative to: not given; reading: higher = stronger binding; endpoint: normalised enrichment score
Starting sequence: CDKN1B docking peptide (human); PSACRNLFGPVDH
PSACVNLFGPVDH [R5V]: -0.0578
PSACRNLFGCVDH [P10C]: -0.0429
PSACWNLFGPVDH [R5W]: -0.323
PSAQRNLFGPVDH [C4Q]: -0.18
PSACRNFFGPVDH [L7F]: 0.227
PSACRNLFNPVDH [G9N]: -0.125
PSACRNLFGPVDP [H13P]: -0.163
PSACRNLDGPVDH [F8D]: -0.0894
PSMCRNLFGPVDH [A3M]: 0.357
PSPCRNLFGPVDH [A3P]: -0.485
PTACRNLFGPVDH [S2T]: -0.134
HSACRNLFGPVDH [P1H]: 0.132
PSACRNLFGPVAH [D12A]: 0.417
PSACRNLFGPVDM [H13M]: -0.2
PSECRNLFGPVDH [A3E]: 0.113
PSACRNLFGPVNH [D12N]: 0.0244
VSACRNLFGPVDH [P1V]: -0.301
PSACRNLFVPVDH [G9V]: 0.198
QSACRNLFGPVDH [P1Q]: 0.233
MSACRNLFGPVDH [P1M]: -0.0989
PSVCRNLFGPVDH [A3V]: 0.0184
PSICRNLFGPVDH [A3I]: 0.332
PSACRNLPGPVDH [F8P]: 0.0774
PSACRNLFGPVDG [H13G]: -0.377
PSACRNLFEPVDH [G9E]: 0.0946

Some of these lines once more (series 5):
PSMCRNLFGPVDH [A3M]: 0.357
PSACRNLFGPVDM [H13M]: -0.2
PSACRNLDGPVDH [F8D]: -0.0894
PSICRNLFGPVDH [A3I]: 0.332
MSACRNLFGPVDH [P1M]: -0.0989
PTACRNLFGPVDH [S2T]: -0.134
QSACRNLFGPVDH [P1Q]: 0.233
PSACRNLFNPVDH [G9N]: -0.125
PSACRNLFVPVDH [G9V]: 0.198
HSACRNLFGPVDH [P1H]: 0.132
PSACRNLFGPVDG [H13G]: -0.377
PSACWNLFGPVDH [R5W]: -0.323
PSECRNLFGPVDH [A3E]: 0.113
PSACRNLPGPVDH [F8P]: 0.0774
PSVCRNLFGPVDH [A3V]: 0.0184
PSAQRNLFGPVDH [C4Q]: -0.18
